Experimental data gathered from unrelated publications.
Numbered parts are unrelated; each lists some results of a single study. Positions count from the first letter of the parent shown.

Series 1 — technique: aptamer microarray, sandwich; form: DNA with 2'F-ANA; sample: in vitro; concentration: 200 nM; together with: Cy3 exosite-II aptamer, 400 nM; reading: higher = stronger binding; measurement: mean fluorescence intensity; oligonucleotide: GGTTGGTGTGGTTGG
Target: Prothrombin, mature alpha-thrombin (F2, Homo sapiens, UniProt P00734)
Notes: whole 15-mer aptamer, many near background
2'F-ANA at 2 4 7 9 11 12 14: 109 a.u.
2'F-ANA at 1 8 13 15: 192 a.u.
2'F-ANA at 3 4 5 9 12 14: 57.6 a.u.
2'F-ANA at 1 2 3 4 9 10 12 13 14 15: 54.1 a.u.
2'F-ANA at 2 5 6 8 12: 175 a.u.
2'F-ANA at 2 3 9 10: 412 a.u.
2'F-ANA at 1 2 3 5 8 10 11 13 15: 48.8 a.u.
2'F-ANA at 1 3 7 10 11 12 15: 124 a.u.
2'F-ANA at 2 7 11 12 13 15: 566 a.u.
2'F-ANA at 4 5 7 9 10 11 12 13: 55 a.u.
2'F-ANA at 3 4 7 9 15: 723 a.u.
2'F-ANA at 1 2 3 4 6 7 10 15: 65.3 a.u.
2'F-ANA at 1 2 5 6 7 9 13: 49.7 a.u.
2'F-ANA at 1 4 6 8 9 10 11 12 13 14 15: 50.1 a.u.
2'F-ANA at 3 5 7 8 10 11 13: 57.8 a.u.
2'F-ANA at 3 4 5 8 11 14: 54.1 a.u.

Series 2 — technique: protein-binding microarray; form: double-stranded DNA, one strand shown; sample: in vitro; concentration: 2200 nM top; notes: 60-bp whole probe; together with: salmon DNA 0.4 mg/ml; reference: random background probes; reading: higher = stronger binding; measurement: fitted relative affinity; all sequences stand within: GCCTAGCAC … GTCTTGATTCGCTTGACGCTGCTG
Target: Interferon regulatory factor 7, full length, phosphomimetic (IRF7, Homo sapiens, UniProt Q92985, residues 1-503, S471D/S472D/S475D/S476D/S477D/S483D/S484D/S487D)
Target sequence (chain): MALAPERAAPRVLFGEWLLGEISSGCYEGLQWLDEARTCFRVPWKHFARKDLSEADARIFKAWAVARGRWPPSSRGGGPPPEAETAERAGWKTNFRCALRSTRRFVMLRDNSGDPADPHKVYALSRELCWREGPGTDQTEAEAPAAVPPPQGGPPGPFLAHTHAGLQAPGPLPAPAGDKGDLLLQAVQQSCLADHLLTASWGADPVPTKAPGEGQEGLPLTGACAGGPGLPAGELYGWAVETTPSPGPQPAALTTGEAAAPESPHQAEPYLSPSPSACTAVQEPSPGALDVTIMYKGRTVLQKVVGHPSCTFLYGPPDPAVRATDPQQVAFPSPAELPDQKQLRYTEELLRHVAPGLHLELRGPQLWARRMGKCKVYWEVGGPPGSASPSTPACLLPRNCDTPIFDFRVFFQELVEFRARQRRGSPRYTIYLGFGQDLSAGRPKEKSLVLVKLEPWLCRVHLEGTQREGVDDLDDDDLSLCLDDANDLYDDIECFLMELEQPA
GGTCTTCTGGGCTGTTTGATCGTGCTA: 0.139 z-score
TAAGGTATCCTTATCCTTTAGTGCTAG: 0.569 z-score
TTAGATTTCAGTTACGATTAGTGCTAG: 0.663 z-score
TCACCTCTGCTGCTGGCACTGTGCTAG: 0.716 z-score
AACGGTTTCCTTTTCCTGACGTGCTAG: 5.28 z-score
CATTGCCTATTTTTCACCTGGTGCTAG: 1.96 z-score
GACGGTTTCGGTGCCGGGACGTGCTAG: 3.05 z-score
GACGATATCGGGTATCTAGACGTGCTA: 0.209 z-score
TTAGGTTTCGACACTGGGTTAGTGCTA: 2.27 z-score
TCAAATCTCTCTTCACAACTGTGCTAG: 0.808 z-score
AGCCTGGCCAAGCTCACAGCGTGCTAG: -1.08 z-score
TTAGGTATCGGGCCTGGGTTAGTGCTA: -0.519 z-score
ATTGCTTCCTCTTTACTGCTGTGCTAG: 3.08 z-score
GACGAACTTAGTCTCGAGACGTGCTAG: 0.0688 z-score
AACGATGCAAGTGCCCTTCGGTGCTAG: -0.0566 z-score
TTAGGTTTCGGGACTGGATTAGTGCTA: 3.01 z-score
TCATCTCTGCTTGTATCACTGTGCTAG: 2.01 z-score
GACGGACTGTACTTTCGGGACGTGCTA: 3.95 z-score
TTAGGACTGGACTTCCGGTTAGTGCTA: 0.0944 z-score
TTTCCTCTGTCATTTTCTCTGTGCTAG: 3.72 z-score
TTAGGTATCGGACTGGGTCAGTGCTAG: -0.146 z-score
GACGGACTGGGTCTCGGGGCGTGCTAG: -0.884 z-score
TCAAGTGTGCCATATTTAACTGTGCTA: 0.00618 z-score
TTAGGTCTCTGTATCGGTTAGTGCTAG: 0.66 z-score
TTCGAATTCAGAATGGGAGAGTGCTAG: -0.0111 z-score

Series 3 — technique: DHFR PCA, deep sequencing; sample: yeast; together with: (+)-ABA 0.032 µM; reference: wild-type fitted maximum; reading: higher = stronger binding; measurement: relative binding score
Target: ABI1, truncated, D143A, DHFR fusion (Arabidopsis thaliana)
Notes: methotrexate growth selection, single substitutions
Starting sequence: PYL1, truncated, DHFR fusion (Arabidopsis thaliana); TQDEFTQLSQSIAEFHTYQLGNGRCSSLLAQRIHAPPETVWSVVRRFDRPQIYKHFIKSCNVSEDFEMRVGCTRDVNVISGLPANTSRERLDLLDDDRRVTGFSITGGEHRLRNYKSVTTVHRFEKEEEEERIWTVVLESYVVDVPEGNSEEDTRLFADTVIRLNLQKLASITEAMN; partner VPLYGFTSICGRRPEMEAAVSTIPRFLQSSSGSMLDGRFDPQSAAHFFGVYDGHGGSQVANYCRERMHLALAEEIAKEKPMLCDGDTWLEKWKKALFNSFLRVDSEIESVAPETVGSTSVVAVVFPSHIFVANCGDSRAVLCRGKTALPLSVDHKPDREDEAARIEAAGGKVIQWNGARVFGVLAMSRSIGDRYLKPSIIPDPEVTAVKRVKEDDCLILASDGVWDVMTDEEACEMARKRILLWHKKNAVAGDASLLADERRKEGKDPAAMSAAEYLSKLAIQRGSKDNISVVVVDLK
R45S: 0.414%
R98Y: 5.78%
S42Q: 27.6%
S117H: -6.92%
D159H: -2.98%
S9Y: 23%
F103T: 1.9%
E109C: 12.4%
L91I: -1.11%
E127A: 41.5%
T86L: 13.7%
E139H: 3.39%
L164Y: -2.09%

Series 4 — technique: protein binding microarray; form: double-stranded DNA, one strand shown; sample: in vitro; concentration: not given; reference: not given; reading: higher = stronger binding; measurement: E-score
Target: Histone acetyltransferase KAT6A, both winged helices, GST fusion (KAT6A, Homo sapiens, UniProt Q92794, residues 1-181)
Notes: 8-mer, flanks averaged, mean of 2 arrays, mostly near background
Target sequence (chain): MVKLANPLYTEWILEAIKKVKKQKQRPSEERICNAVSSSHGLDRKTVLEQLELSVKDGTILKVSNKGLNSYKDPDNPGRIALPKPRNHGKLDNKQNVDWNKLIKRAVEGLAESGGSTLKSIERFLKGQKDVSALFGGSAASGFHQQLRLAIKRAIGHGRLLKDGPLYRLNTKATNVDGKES
CGTGTCTC: 0.0179
AATGGGCG: 0.00393
AATGAACA: -0.0842
CTGGCATC: -0.215
AGTCTGCC: -0.106
CGGACTGC: 0.14
CCATCTAG: -0.312
CGACTCGA: -0.0789
ATTAGAAC: 0.044
AACTTCTA: -0.202
CCCTCGCA: 0.0765
CCGCTGTA: 0.163
TAAGTGGA: -0.142
GCAATGCC: 0.0505
ACGGACAG: 0.182
CGCACGCC: 0.256
CATCACAC: -0.0865
AATACACG: 0.105
TACGAGGA: -0.0609
AGATTACC: -0.111

Series 5 — target: CCNE1, cyclin fold, Cln2 fusion (human); technique: yeast growth competition, sequencing; sample: yeast; notes: weak parent motif; reference: not given; reading: higher = stronger binding; measurement: normalised enrichment score
Starting sequence: DNAH7 docking peptide (human); HELFQRLDFDNDG
HELFQRLDFDNDA [G13A]: 0.184
HELAQRLDFDNDG [F4A]: -0.143
HALFQRLDFDNDG [E2A]: 0.131
HELFQRLAFDNDG [D8A]: 0.118
HELFQALDFDNDG [R6A]: 0.234
HELFQRLDFDADG [N11A]: 0.0149

Series 6 — technique: RNA Bind-n-Seq; form: RNA; sample: in vitro; concentration: 365 nM; reference: no-protein control; reading: higher = stronger binding; measurement: RBNS enrichment (R)
Target: RNA binding protein fox-1 homolog 2, RRM domain, GST-SBP tag (RBFOX2, Homo sapiens, UniProt O43251-10, residues 100-194)
Notes: natural RNA segment, single round, ends assumed
All sequences stand within: GGGAGUUCUACAGUCCGACGAUC … UGGAAUUCUCGGGUGCCAA
Residues (chain): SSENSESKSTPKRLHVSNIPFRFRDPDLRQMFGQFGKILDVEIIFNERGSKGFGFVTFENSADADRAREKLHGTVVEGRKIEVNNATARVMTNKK
AGUGCAAUAUAUUUUGUAUGCAAACAGUUUCAAUAAAGUUUGAUCUUCCUCUGCUAAAUUGAUGUUGAUGCAAUCCUUACAAUGAUUGCUUUUAAAAUUUUAAGAUAGGA: 0.279
UGAACUUGCAUAUGGGGCUUAGCCUUCUAGUCACAGCCUCUAUAUUUGAUGCUAGAAAACACAUAUUUUUAAAUGGAAGAAAAAUAAAAAGGCAUUCCCCCUUCAUCCCC: 0.573
GAGGUUGAGGUGACUAAAAGGUUAGCCUCUCAUAACCCAGCCAUGGAAGUUUUGUUUACUAGGAGCCUGACUUCCCAGCUCACAAAGGGUGAAAUGAAAGCUGAAGUACA: 0.379
ACAGGCUUUCAUUCUAUCUUAUUAACAUAGAGUCUUAUGGAACAAUUUGCCAUGAGUAUAGUUGAAAUCACCAUAGCAAACUCAGGGUAAGUGUGGGCUUUUGUUUCUUA: 0.509
UGUAGCAGCCGGGAUGUGACCCUCCAGGGUUUGGGUCGCUUUGCGUUUGUCGAAGCCUCCUCUGAAUGGCUUUGUGAAAUCAAGAUGUUUUAAUCACAUUCACUUUACUU: 0.269
CAAAAGGCAUUAUAACUCUGACUCAAAUACAAGGUACAGAAGAUAAGCAUCUUUGAGGAAACUCCUACUUCAGUUCUUUUGUUAUGAUGAAGACAUUUGUGAGAGAGGAG: 0.863
UAAUGCUGGUAGCAGUUGGAUCCAGGCACAACCAGACUUAGUUGCACAACUGUAUGUGACCAAAAGACACAUUUUGUGUCACUCCUGCUUUCCUGUCAGCUGUUGACACC: 0.309
ACAUUUAUUCACUUCCAAAUAUGUUUUAUGUAUACCCACAUACAGUGUGUGGGAUUACAGCCAAAGUAUACUUGUCAACAUAUACGAAGUCUCUAGUCCUAACUUUUAAA: 0.372
AACAGCAGACUCAGCUCUGACAUUCUGAUUCGAAUGACACUGUUCAGGAAUCGGAAUCCUGUCGAUUAGACUGGACAGCUUGUGGCAAGUGAAUUUGCCUGUAACAAGCC: 0.237
CCCCACACCCCGUCUCUCACCAAGAGUUACUGAUUUUGCUCAUCCACUUCCCUACACAUCUAUGGGUAUCACACCCAAGACUACCCACCAAGCUCAUACAGGGAACCACA: 0.684
GACUGUUUUUCAGUUGCUAUAUCAUAUUUUAAAAGUUUCUUUUCUAGCUUGACACUGUACUAGCUUCCUGAAUUGUUUGAAAAUACUACUUAAAUAUAAGACAACAGGAA: 0.954
AGGAUGGAGAGGACUUGGUGGAUUUUUGUUUCUUGCCUGACCUCAGUUUCAUGAAAGAAAGUGGAAGCUACAGAAUUAUUUUCUAAAAUAAAGGCUGAAUUGUCUGAAAA: 0.535

Excerpt of the above (series 6):
GAGGUUGAGGUGACUAAAAGGUUAGCCUCUCAUAACCCAGCCAUGGAAGUUUUGUUUACUAGGAGCCUGACUUCCCAGCUCACAAAGGGUGAAAUGAAAGCUGAAGUACA: 0.379
CAAAAGGCAUUAUAACUCUGACUCAAAUACAAGGUACAGAAGAUAAGCAUCUUUGAGGAAACUCCUACUUCAGUUCUUUUGUUAUGAUGAAGACAUUUGUGAGAGAGGAG: 0.863
ACAGGCUUUCAUUCUAUCUUAUUAACAUAGAGUCUUAUGGAACAAUUUGCCAUGAGUAUAGUUGAAAUCACCAUAGCAAACUCAGGGUAAGUGUGGGCUUUUGUUUCUUA: 0.509
UGAACUUGCAUAUGGGGCUUAGCCUUCUAGUCACAGCCUCUAUAUUUGAUGCUAGAAAACACAUAUUUUUAAAUGGAAGAAAAAUAAAAAGGCAUUCCCCCUUCAUCCCC: 0.573
AACAGCAGACUCAGCUCUGACAUUCUGAUUCGAAUGACACUGUUCAGGAAUCGGAAUCCUGUCGAUUAGACUGGACAGCUUGUGGCAAGUGAAUUUGCCUGUAACAAGCC: 0.237
